Results pooled from the literature.
A part holds a random share of what one study measured.

Block 1
Target: RNA binding protein fox-1 homolog 2, RRM domain, GST-SBP tag (RBFOX2, Homo sapiens, UniProt O43251-10, residues 100-194)
Technique: RNA Bind-n-Seq
Form: RNA
Matrix: in vitro
Concentration: 365 nM
Notes: natural RNA segment, single round, ends assumed
Baseline: no-protein control
Reading: higher = stronger binding
Endpoint: RBNS enrichment (R)
All sequences stand within: GGGAGUUCUACAGUCCGACGAUC … UGGAAUUCUCGGGUGCCAA
Target sequence (chain): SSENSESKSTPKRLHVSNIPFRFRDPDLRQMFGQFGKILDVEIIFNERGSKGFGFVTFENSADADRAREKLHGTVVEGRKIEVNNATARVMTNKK
Strand = UCCAGGAGAGCAGAUGUGAAGGACCUGCACCAGGAUGGUGGUUAGCAACAGUGGCCCGUGCCAAAGCACUUACCAAAGUGAUGAUGACUAAGGCCCUGUCAUUAAUUCCA; result = 0.302
Strand = GAAGACAAUCUUUCAACAUCCCUACAUUCCUGAUAUGAAGCAGGAAUUUGCACAUGGUGUAGAGAGCUCCCUCUCCUGCCUCUCUGCCCAGCCUUGUUACCUCACUCCUG; result = 0.948
Strand = AUAAACAUUUUAUUAUGAUGGUGCUAGGUACAAAAUUUAUAGCAUGGGAUGUGAAGAAAAAAAAUGAGAACCCAUUGAAAGGAAGAAAGGAAUUUGUUGUCUGCUUCUAA; result = 5.61
Strand = CCAGCGUCCUAACUGACUGUAAUCGACCGGGUUUUCAUCCCCUGUCCCAUCCCCUGAGCAUCUUUUCGUAUUUAGAUUUGUCUCUGUUAAAAUGAUGAAACGGAAAUCGG; result = 0.351
Strand = AUGUGUGUCGUUAACAUUUAUAUAUUUCCAUUCAAAAUAUGUAUUCAGUGUUUAUUUCCUCAAAACAGACUUUGUUAAUGUAGGAAAUCUCUCCAAGUGGAAACGUGCUA; result = 0.288
Strand = CCUUAAAUACUUGUUAUUGACUGGGGUUAUUUUUAUGCUGUAGCAAAUGUGACAGGCUCUUUUUAGCAAAAUUUUUGAAAAUUUUUUUGGUAUUACUCUGAAACAAAAUU; result = 0.925
Strand = GGUUUCCAAUCCAGUGUGGACAGCAAAUGAAUGCUAUGCAGGCAUGCAGAUGAGAUCUGUACUAUAGUCUACAAUUUGUAUCCUGUCUCUCCCACCACCCCCGGCAGUGU; result = 0.481
Strand = CGGGCACUUGUUGCAUUGCCUGGCACCCAAUAUUCAGGGUCCAUGACUAAGACUGGUCUUCUCAGAUGCCCUGCUUAAAUCAGGGGCACUUCAGGCUCCACAGGCGUCAU; result = 0.421
Strand = AUACCCACCCCAGGGUAACGGGGCUGGCCUGGCAUUAGUCAUUAUUUAGUUUCCAGGCCAACCAUCCAGAUAGAGAUUCCCUCUUUCCUUUGAGCAGUGCUCUCAAGAGC; result = 0.248
Strand = UGUUAUAGGGUCCCCUCCCUGACGCCUAAAAUAUUUGUAACUACACCUAAAAGGGUUUUGCUUCGGGAUUUUUGUUUGUUCGGUUUUUUUGUUUUUUUAAAGAAAAAGAA; result = 0.779
Strand = GCACCCCAGACUUGACUGUGUAAAUAAGAGUGUUUCAUUCAAAUGUUAAUAAACUUUACACAGUAUAUAGACACAUUUUCUGCAAUGUACUGACAUCAGUGUCCAAUAUA; result = 0.506
Strand = GAAUAUCAGUCCAAGCAAGCUGAUACGUGAGUGGCAGUGGAUAGGAUUUGCUUAAUGGCUGAUGUAAUAAGAUUGUACUUCCUAUACAGAGGCACCUUACUCUCUGGGGC; result = 0.833

Block 2
Target: Histone acetyltransferase KAT6A, winged helix 2, GST fusion (KAT6A, Homo sapiens, UniProt Q92794, residues 85-181)
Technique: protein binding microarray
Form: double-stranded DNA, one strand shown
Matrix: in vitro
Concentration: not given
Notes: 8-mer, flanks averaged, mean of 2 arrays, mostly near background
Baseline: not given
Reading: higher = stronger binding
Endpoint: E-score
Construct (chain): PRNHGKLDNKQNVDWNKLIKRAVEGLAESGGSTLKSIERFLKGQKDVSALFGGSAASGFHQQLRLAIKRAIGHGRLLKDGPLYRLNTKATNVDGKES
Strand = AGTGGCTA; result = -0.0153
Strand = AGGCGAAT; result = 0.105
Strand = CTTACGAA; result = 0.0127
Strand = CGTAGAGA; result = -0.101
Strand = GGCATGTA; result = -0.177
Strand = AAGAACCT; result = 0.0151
Strand = ATAAATTC; result = 0.0535
Strand = ACCAGATG; result = -0.131
Strand = AGGTGTCC; result = -0.0317
Strand = GGCGACAA; result = 0.136
Strand = AGTACACG; result = -0.107
Strand = ATCAATAA; result = 0.114
Strand = TACTTGCA; result = -0.177
Strand = ACGCGTCT; result = -0.0868
Strand = GATTTGGC; result = -0.0664
Strand = AGGACCAT; result = -0.17
Strand = CCAGCGCA; result = 0.0664
Strand = CGATACAC; result = -0.0956
Strand = AGTGTGTC; result = 0.0452

Block 3
Target: Interferon regulatory factor 7, full length, phosphomimetic (IRF7, Homo sapiens, UniProt Q92985, residues 1-503, S101K/S471D/S472D/S475D/S476D/S477D/S483D/S484D/S487D)
Chain of UniProt Q92985 (whole entry, unmodified, looked up): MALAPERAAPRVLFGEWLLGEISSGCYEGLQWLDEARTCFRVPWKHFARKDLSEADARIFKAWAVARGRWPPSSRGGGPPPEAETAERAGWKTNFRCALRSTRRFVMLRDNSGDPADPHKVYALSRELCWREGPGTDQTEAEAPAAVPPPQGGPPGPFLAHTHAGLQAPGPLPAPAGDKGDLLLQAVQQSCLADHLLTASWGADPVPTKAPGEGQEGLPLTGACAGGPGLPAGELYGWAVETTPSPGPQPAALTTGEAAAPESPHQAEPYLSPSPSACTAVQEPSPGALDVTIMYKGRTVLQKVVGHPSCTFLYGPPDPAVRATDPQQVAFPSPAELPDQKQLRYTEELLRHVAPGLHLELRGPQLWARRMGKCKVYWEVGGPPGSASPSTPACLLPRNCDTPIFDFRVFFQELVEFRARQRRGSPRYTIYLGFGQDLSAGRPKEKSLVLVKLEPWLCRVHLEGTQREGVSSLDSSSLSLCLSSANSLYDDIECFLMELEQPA
Technique: protein-binding microarray
Form: double-stranded DNA, one strand shown
Matrix: in vitro
Concentration: 250 nM
Notes: 60-bp whole probe
Added: salmon DNA 0.4 mg/ml
Baseline: random background probes
Reading: higher = stronger binding
Endpoint: log fluorescence
All sequences stand within: GCCTAGCAC … GTCTTGATTCGCTTGACGCTGCTG
Strand = TTAGGACTGGGTCTCTGTTAGTGCTAG; result = 0.201 z-score
Strand = GACGGTCTCCTTATCGTGACGTGCTAG; result = -0.0422 z-score
Strand = GACGGTCGCGGTATCGGGACGTGCTAG; result = 0.283 z-score
Strand = TCAACACTCACCATGGCACTGTGCTAG; result = -0.354 z-score
Strand = GACGGTTCCCTTTTACTGACGTGCTAG; result = 3.64 z-score
Strand = GTCGGACTGGGTATCGGGACGTGCTAG; result = -0.102 z-score
Strand = GACGGTAGCGGTTTCGGGACGTGCTAG; result = 2.55 z-score
Strand = GACGGTTTCGGTATCGGGGCGTGCTAG; result = 9.87 z-score
Strand = GACGGTATCGGGACTGGGGACGTGCTA; result = -0.261 z-score
Strand = TCAGTTACCCATCTCAAACTGTGCTAG; result = 0.745 z-score
Strand = ATAGATTCCAGTTTCGATTAGTGCTAG; result = 9.81 z-score
Strand = TGAGGTCTCGGTTTCGGTTAGTGCTAG; result = 10.8 z-score
Strand = TTAGGTATCGGGTATGGGTTAGTGCTA; result = 0.655 z-score
Strand = CCTTTTATGGTTTTTTTTTAGTGCTAG; result = 1.85 z-score
Strand = GGGCACGTTGTTTAACTTCTGTGCTAG; result = -0.478 z-score
Strand = TCAATTTTCCAAATGCCACTGTGCTAG; result = 1.31 z-score
Strand = TCACTTGTCCCTCCGGGACTGTGCTAG; result = 0.474 z-score
Strand = TACGAACTGAGTCTCGAGACGTGCTAG; result = 0.58 z-score
Strand = TCAGCTTTCCAATTCTCACTGTGCTAG; result = 0.779 z-score

Block 4
Target: Fragile X messenger ribonucleoprotein 1, C-terminal low-complexity region (Fmr1, Mus musculus, UniProt P35922)
Technique: RNA Bind-n-Seq
Form: RNA
Matrix: in vitro
Concentration: 200 nM
Notes: whole 134-nt RNA, ends assumed
Added: 150 mM LiCl
Baseline: input library
Reading: higher = stronger binding
Endpoint: log2 enrichment
Library: 7-deaza-guanosine replaces G
All sequences stand within: GGGAGUUCUACAGUCCGACGAUC … UGGAAUUCUCGGGUGUCAAGG
Strand = CACAGACAACACGCACCCACACAGACACAGAGGGAAGGGGUUGGGGUGGGGACAGGGUGCACAGCAGGGCGGGGUAGGACCCCAGCCCCU; result = 1.43
Strand = CCUGUGCUACACAUCGUAUGUACCGAAUCAAACCCCCCCAAAUUUUUUUAAAUUUUUAAAAAAGUAUUAUGUUACGCCGUUCGGAUCUGC; result = 1.63
Strand = AAGUCCUGUGCUACACAUCGUAUGUACCGAAUCGGGUUUUUGGGAAAGGGAAAGGGAAAGUAUUAUGUUACGCCGUUCGGAUCUGCACUU; result = -0.966
Strand = CCUCAAGUCCUGUGCUACACAUCGUAUGUACCGAAUCGGGUGGGAGGGUGGGAAAGUAUUAUGUUACGCCGUUCGGAUCUGCACUUCCAG; result = -0.676
Strand = ACCAUGCAGGUGGGCAUCUUUGGGAAGUGGGGCAAGGGGGGGAUAGGGAGGGGGGUAACACUUUGGGAACAGGUGGUCCUAGGUCGUUUC; result = 1.26
Strand = AAGUCCUGUGCUACACAUCGUAUGUACCGAAUCGGGUGGGAAAAAGGGAAAAAGGGAAAGUAUUAUGUUACGCCGUUCGGAUCUGCACUU; result = -0.141
Strand = CCUGUGCUACACAUCGUAUGUACCGAAUCGGGUUUUUUGGGGUUUUUUGGGUUUUUUGGGAAAGUAUUAUGUUACGCCGUUCGGAUCUGC; result = -0.893
Strand = UGCGGGACAAAGAAGUGGCCAAUCGAUACUUUACCACUGUCUGUGUGAGAUUACUGCUUGAGAGCAAAGAAAAGAAGAUCAGGGAAUUCA; result = -0.0632
Strand = UCAAGUCCUGUGCUACACAUCGUAUGUACCGAAUCGGAAAAAAAGGAAAGGUGGAAAGUAUUAUGUUACGCCGUUCGGAUCUGCACUUCC; result = -1.44
Strand = AAGUCCUGUGCUACACAUCGUAUGUACCGAAUCGGUUUUUGGGUUUUUGGUUUUUGGAAAGUAUUAUGUUACGCCGUUCGGAUCUGCACU; result = -1.58
Strand = UGCUUCUCUAUGGAAAGGACUUUCCCCCAAGCUGGACGAGGCAUUAAGAAGGAUAGAGGACUCCAGCAGGCUGACUCUACACUUCAUCAU; result = 1.01
